Assay results collected from several papers.
Numbered parts are unrelated; each lists some results of a single study. Substitutions count along the parent as printed.

Sample 1
Target: Centromere-binding protein 1, full length, N-terminal tag (CBF1, Saccharomyces cerevisiae, UniProt P17106, residues 1-351)
Sequence of UniProt P17106 (whole entry, looked up): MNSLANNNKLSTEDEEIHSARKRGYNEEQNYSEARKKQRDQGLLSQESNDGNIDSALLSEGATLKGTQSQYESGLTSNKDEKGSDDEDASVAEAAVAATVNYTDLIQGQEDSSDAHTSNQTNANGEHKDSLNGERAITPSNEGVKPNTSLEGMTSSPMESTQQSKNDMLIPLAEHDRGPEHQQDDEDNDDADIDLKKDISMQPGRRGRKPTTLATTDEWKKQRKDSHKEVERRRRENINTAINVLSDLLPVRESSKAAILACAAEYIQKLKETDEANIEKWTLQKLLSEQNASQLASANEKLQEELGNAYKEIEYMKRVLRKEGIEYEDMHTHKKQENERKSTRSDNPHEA
Technique: protein-binding microarray
Form: double-stranded DNA, one strand shown
Sample: in vitro
Tested at: 0.8 µM
Setting: whole 60-bp probe, no competitor
Direction: higher = stronger binding
Strand	fluorescence intensity
CTAACGCATGGAAAACACGTGACCTGAAAGTCATTCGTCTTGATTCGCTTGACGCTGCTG	21400 a.u.
GAAAGGAAGAGATACCTCACGTCTGTAATATCTTAGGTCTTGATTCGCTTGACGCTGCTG	511 a.u.
GAAGAAATGACGTGCCAGGTGATTTTTCCATTCTAGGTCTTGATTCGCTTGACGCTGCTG	617 a.u.
GAAACGAAGCCTTTGCACCTGATATAAAAAGTGTAGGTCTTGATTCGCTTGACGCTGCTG	1130 a.u.
TGTACGAAGCTATATCACGCATTTATAGTAGTTAGGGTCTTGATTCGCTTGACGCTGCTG	582 a.u.
CTACCGGGTGCGCGCCACGCAATATATAAAACGTTCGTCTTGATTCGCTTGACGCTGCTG	489 a.u.
TGTACGAAGCTATAACATGTGCGTATAGTAGTTAGGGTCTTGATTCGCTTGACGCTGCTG	686 a.u.
GAATTTATGTAATTACGTGTGATACCTCCGATTTAGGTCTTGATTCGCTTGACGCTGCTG	509 a.u.
GAACTGACTGATTATGACGTCGGATCCTATGACTAGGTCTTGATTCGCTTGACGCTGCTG	575 a.u.
CTATCCTCGATACGGCATGCGTATAAAGAGATATTCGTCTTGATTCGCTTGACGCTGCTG	495 a.u.
CTAAGCCAAACTCCCCACCTGACAATGTCTTCATTCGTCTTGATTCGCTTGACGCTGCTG	658 a.u.
CTACGTATACGTTTAAGTGTGATTGCACCTATTTTCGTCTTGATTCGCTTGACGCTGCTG	503 a.u.
GAAAGGGTTACTATACACGATGAATGATTAGACTAGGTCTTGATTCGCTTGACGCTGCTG	547 a.u.
CTACAGTCTGTACGTGTTGTTGTGGCTGATACATTCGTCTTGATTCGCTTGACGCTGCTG	510 a.u.
GAAATTATCAGCCTCCATGTGCTTGCGTGCTGTTAGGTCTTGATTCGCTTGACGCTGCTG	561 a.u.
CTACTGATTACGGATCACGTTCAAATTGGTAAATTCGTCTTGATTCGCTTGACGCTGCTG	2080 a.u.
CTACTTACCCTCCCACGTGCTAGATTTTTCGATTTCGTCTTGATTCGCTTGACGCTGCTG	5740 a.u.
GAATGTGCGACGATTCATGTGTGTTAGATTGGGTAGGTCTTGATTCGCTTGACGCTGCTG	572 a.u.
CTAGCAGGAAATAGCCCCGTGCTATTCCATCCTTTCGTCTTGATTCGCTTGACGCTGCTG	727 a.u.

Sample 2
Target: Max dimerization protein 1, bHLH-zipper, MAX partner unstated (MXD1, Homo sapiens, UniProt Q05195, residues 56-136)
Technique: protein-binding microarray
Form: double-stranded DNA, one strand shown
Sample: in vitro
Tested at: not given
Setting: k-mer, scored over probes, only values ≥0.25
Direction: higher = stronger binding
Target sequence (chain): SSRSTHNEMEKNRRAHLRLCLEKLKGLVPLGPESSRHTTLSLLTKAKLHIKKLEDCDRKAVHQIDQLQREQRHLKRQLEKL
Strand	E-score
CCATATGG	0.387
CGTGCGGC	0.315
CATGAGTC	0.271
CCCACACC	0.297
ACAGCATG	0.416
AGTCACGC	0.374
ACATGGCT	0.277
CGCGTGCA	0.405
AGCATATG	0.293
AACATGGG	0.316
GTGTCAAA	0.269
CAAGCATG	0.386
CACCCCTC	0.311
ACGCGGAT	0.281
GTGCATGA	0.27
GGCCACGA	0.26
ATGCATGG	0.357
AATACATG	0.322
CATGCGGG	0.384
CAACCACG	0.351
CACATTGC	0.339

Sample 3
Target: ABI1, truncated, D143A, DHFR fusion (Arabidopsis thaliana)
Technique: DHFR PCA, deep sequencing
Sample: yeast
Setting: methotrexate growth selection, single substitutions
With: (+)-ABA 200 µM
Relative to: wild-type fitted maximum
Direction: higher = stronger binding
Parent: PYL1, truncated, DHFR fusion (Arabidopsis thaliana); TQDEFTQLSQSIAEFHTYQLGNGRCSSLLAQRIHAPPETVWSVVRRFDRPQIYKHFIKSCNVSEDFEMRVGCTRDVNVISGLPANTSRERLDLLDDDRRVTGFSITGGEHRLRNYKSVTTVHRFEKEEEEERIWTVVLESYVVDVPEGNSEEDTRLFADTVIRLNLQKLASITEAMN; partner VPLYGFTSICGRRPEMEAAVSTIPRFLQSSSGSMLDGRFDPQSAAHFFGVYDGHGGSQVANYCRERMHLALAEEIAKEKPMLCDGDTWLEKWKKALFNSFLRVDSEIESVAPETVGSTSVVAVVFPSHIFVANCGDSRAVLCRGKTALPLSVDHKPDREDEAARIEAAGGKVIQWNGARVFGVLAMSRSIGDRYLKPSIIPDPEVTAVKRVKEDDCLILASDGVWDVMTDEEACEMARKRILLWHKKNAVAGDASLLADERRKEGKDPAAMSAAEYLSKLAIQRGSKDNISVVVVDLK
Variant	relative binding score [%]
N114D	77.7
E152T	92.5
T154G	14.2
D95Q	73.7
E128W	103
D95T	18.4
V62K	62.8
D95C	91.7
S150K	75.2
P146Q	38.9

Sample 4
Target: RNA binding protein fox-1 homolog 2, RRM domain, GST-SBP tag (RBFOX2, Homo sapiens, UniProt O43251-10, residues 100-194)
Technique: RNA Bind-n-Seq
Form: RNA
Sample: in vitro
Tested at: 365 nM
Setting: natural RNA segment, single round, ends assumed
Relative to: no-protein control
Direction: higher = stronger binding
Target sequence (chain): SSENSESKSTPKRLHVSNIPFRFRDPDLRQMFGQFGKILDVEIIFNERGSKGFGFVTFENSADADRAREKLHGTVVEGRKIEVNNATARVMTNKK
Strand	RBNS enrichment (R)
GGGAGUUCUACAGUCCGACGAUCGAAACCAGUUGUUCCCAAUCUGCCGUUACCAUCAACGCACUGUUGCAUAUGCCAGCCACUGCGCUUGGUUCCCAUUUUCUUUGCCAAGGUGUAUUAGCGGACGGCCCUCUUGGAAUUCUCGGGUGCCAA	0.634
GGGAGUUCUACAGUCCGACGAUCUCUCUGUGAAUAAAUCCUUGUUAAGUUAACCCUUUGCUCUUCCUCCCAUGUGUAUUUUCUUACAUACUGUGAAUGUGAAGACCCUAACUGGUACACUUGAUCUUAUGUCCUGGAAUUCUCGGGUGCCAA	0.365
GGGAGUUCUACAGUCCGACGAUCCUGGGAACUUAUUAAAUGGAAACUGAAACUACUGCACCAUUUAAAAACAGGCAGCUCAUAAGAGCCACAGGUCUUUAUGUUGAGUCGCGCACCGAAAAACUAAAAAUAAUUGGAAUUCUCGGGUGCCAA	0.386
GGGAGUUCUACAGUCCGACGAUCAAUGUAGGGGGAUCUCGGAAUGAACUCCUGGGGUUCCUGGUCUCCAGCCCAGCCUGAUGGUGUAAAUGUACUGUUUCAGAAAACACAUGAGGCUCACCGAAGGCUGAAGAUGGAAUUCUCGGGUGCCAA	0.882
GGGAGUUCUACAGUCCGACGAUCGUGUUCCUCCUCCCUCUAUUACUGUUUCACCAGAGCUGUCUUAGCUCAAAUCUGUUGUGUUUCUGAGUCUAGGGUCUGUACACUUGUUUAUAAUAAAUGCAAUCGUUUGGUGGAAUUCUCGGGUGCCAA	0.377
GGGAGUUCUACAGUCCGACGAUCUCCUUGUGUAGAAAUGAUUCCCAGUCUAGUUACCAACAGCUAGUCUAGGAGUAAUUGAAUGGCCCUAUGGCACAGUUCCACCCACAGAGUAGUGAAUCUCUCAGCCAAGGUGGAAUUCUCGGGUGCCAA	0.526
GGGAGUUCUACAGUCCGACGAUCCUCUCUCUGAAGCCAGGGCCCUUCCAUUCCAUUUAGCCUUUGGAUCAUCCUGGCUGGGAGAAGUGGGACCGAGCCACCCAGCCCCACUAUCCCCAAGCAGCCCUACAGCCUGGAAUUCUCGGGUGCCAA	0.397
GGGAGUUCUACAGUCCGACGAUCCUCCUGGGCACCCUUGCCUCGCCCCAGACCGGCCCGUCCAGUCCCCAUCACACCUCGGCGGCCUUUAUUUAUUCUGUUCCCCCAGCUCGGCCACUUCUCUGAAGGAGGGCUGGAAUUCUCGGGUGCCAA	0.33

Sample 5
Target: CCND3, cyclin fold, Cln2 fusion (human)
Technique: yeast growth competition, sequencing
Sample: yeast
Setting: weak parent motif
Relative to: not given
Direction: higher = stronger binding
Parent: GMNC docking peptide (human); KNAKRNLSSEFAN; partner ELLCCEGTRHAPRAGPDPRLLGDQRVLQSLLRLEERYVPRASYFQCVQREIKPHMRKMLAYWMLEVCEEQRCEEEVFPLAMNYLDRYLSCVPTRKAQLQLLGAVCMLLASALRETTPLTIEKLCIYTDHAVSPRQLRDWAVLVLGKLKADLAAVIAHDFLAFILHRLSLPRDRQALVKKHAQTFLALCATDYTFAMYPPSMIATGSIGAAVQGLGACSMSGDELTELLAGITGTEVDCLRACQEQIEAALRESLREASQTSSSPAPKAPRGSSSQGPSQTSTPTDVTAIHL
Variant	normalised enrichment score
N2W	0.575
E10A	-0.297
S8A	0.076
N2H	0.223
S9D	0.358
K4Y	0.22
S9G	0.391
N2S	0.329
A12W	0.22
N2V	0.0372
E10V	0.227
A3T	0.471
N6W	-0.0227
A12V	-0.153
A3C	0.0284
S8K	0.127
L7H	0.439
S9R	0.422
N2K	0.648
R5P	-0.262
A12H	0.127
A3D	0.312

Some of these lines once more (sample 5):
Variant	normalised enrichment score
K4Y	0.22
S9G	0.391
N2S	0.329
A12W	0.22
N2V	0.0372
E10V	0.227
A3T	0.471
N6W	-0.0227
